Measured values gathered from unrelated publications.
Values joined by “and” are separate records of one study, mostly repeats; a detail may differ. ± gives the spread as reported. Values after ≈ are worked out from the molar mass of the structure shown.

SMILES = CC1CCC(C(C)C)C(OC2=C(Cl)C(=O)c3ccccc3C2=O)C1 (stereo not drawn); target or system = Alternaria alternata; system = ITCC 4522; setting = 10 µg/mL; quantity = zone of inhibition; result = 17 mm
SMILES = CCc1nn(C)c2nc(-c3ccc(C(=O)O)cc3)nc(NCc3ccc(F)cc3)c12; target or system = Cryptosporidium parvum; system = HCT-8; setting = 3 x EC90, 6 h; scale = baseline: DMSO control; quantity = parasite number; result = 100% and 77.7% and 62.4% and 81.3%
SMILES = O=C(Nc1nc2cccc(-c3ccc(CN4CCS(=O)(=O)CC4)cc3)n2n1)C1CC1; test = measured: injection site haematoma; system = human rheumatoid arthritis patients; setting = oral, 150 mg once daily, 4 weeks, regardless of relatedness; quantity = treatment-emergent adverse events; result = 6.7%
SMILES = c1ccc(-c2nc3n(c2-c2ccc4sccc4c2)CCC3)nc1; target or system = Leishmania infantum; system = macrophages, MHOM/MA(BE)/67/ITMAP263, amastigote; quantity = IC50; result = 540 nM and 170 nM
SMILES = O=S(=O)(c1ccc(Cl)cc1)N1CCN(c2ccc(C(F)(F)F)c(NCc3ccncc3)c2)CC1; target or system = Aedes aegypti; setting = 100 µM, 48 h, 1 instar larvae; quantity = larval mortality; result = > 80%
SMILES = Cn1cc(-c2ccc(-c3cncc(Cl)c3N3CCC4(CCNC4=O)CC3)cc2)cn1; target or system = COLO 205; test = gene expression, microarray, measured: SLPI mRNA; setting = concentration not given, 2 h; scale = baseline: untreated cells; quantity = log2 fold change; result = 4.64
SMILES = CC(=O)NC[C@H]1CN(c2ccc(N3CCOCC3)c(F)c2)C(=O)O1; target or system = Staphylococcus epidermidis; system = methicillin-resistant, 10 isolates; setting = pH 7.0; quantity = MIC50; result = 1 µg/mL (≈ 2.96 µM)
SMILES = Cc1cc(OC(C)C)ccc1C(=O)C(C)(C)NC(=O)c1sccc1C; target or system = Alternaria alternata; test = mycelial growth; system = apple pathotype, PSA medium; setting = 20 °C, suspension concentrate 400 g/L; quantity = EC50; result = 0.99 µg/mL (≈ 2.75 µM)
SMILES = COc1c(O)cc2c(c1O)C(=O)c1c(cc(C)c(O)c1OC)C2=O; target or system = HK-2 co-cultured with HepaRG; test = MTT; setting = 266.67 µM, 48 h; scale = baseline: untreated control; quantity = viability; result = 21.3 ± 4.36%
SMILES = Nc1nc(-c2ccccc2)nc2[nH]nc(Nc3ccc(C(F)(F)F)cc3)c12; target or system = coxsackievirus B3; system = 31-1-93, NMRI mice, CVB3 chronic myocarditis; setting = oral, 100 mg/kg twice daily, day 26, dosed days 1 to 7, score scale 0 to 7; scale = direction not given; quantity = clinical score; result = 0.11
SMILES = COc1c(O[C@@H]2O[C@H](CO)[C@@H](O)[C@H](O)[C@H]2O)c(C)cc2c1C(=O)c1c(O)cccc1C2=O; target or system = HK-2 co-cultured with HepaRG; test = MTT; setting = 66.67 µM, 48 h; scale = baseline: untreated control; quantity = cell viability; result = 92.8 ± 1.62%
SMILES = Cc1ccc2nc(-c3ccccn3)c(CN(CC(C)C)c3cccc(C(F)(F)F)c3)n2c1; target or system = Leishmania infantum; system = macrophages, MHOM/MA(BE)/67/ITMAP263, amastigote; quantity = IC50; result = 3530 nM and 5980 nM
SMILES = CC(C)n1ncc2c(C(=O)NCC3(C)CNC3)cc(C3CC3)nc21; target or system = coxsackievirus A6; test = CPE; system = RD; setting = 15 µM; quantity = cell protection; result = 100%
SMILES = [2H]C([2H])([2H])N(c1ccc(F)cc1)c1c(-c2ccccn2)nc2ccccn12; target or system = Leishmania infantum; system = macrophages, MHOM/MA(BE)/67/ITMAP263, amastigote; quantity = IC50; result = 1260 nM
SMILES = CC(C)C[C@H](NC(=O)C[C@H](O)[C@H](CC(C)C)NC(=O)[C@H](Cc1c[nH]cn1)NC(=O)CNC(=O)[C@@H](NC(=O)[C@H](C)NC(=O)[C@H](Cc1c[nH]c2ccccc12)NC(=O)[C@H](CCC(N)=O)NC(=O)[C@@H](Cc1ccccc1)NC(=O)COCCOCCNC(=O)CCC(C(=O)O)N1CCN(CC(=O)O)CCN(CC(=O)O)CCN(CC(=O)O)CC1)C(C)C)C(N)=O (stereo partly drawn) [lutetium-177 labelled]; system = BALB/c nu/nu mice, brain; setting = intravenous, 500 pmol, 1 h, with: PA 300 µg; quantity = tissue uptake; result = 0.02 ± 0.01 %ID/g
